{"data": "Results of several laboratories", "DCLRE1A": "DNA cross-link repair 1A protein (DCLRE1A, Homo sapiens, UniProt Q6PJP8)", "STK26": "Serine/threonine-protein kinase 26 (STK26, Homo sapiens, UniProt Q9P289)", "PRKACA": "cAMP-dependent protein kinase catalytic subunit alpha (PRKACA, Homo sapiens, UniProt P17612)", "note": "Values joined by “and” are separate records of one study, mostly repeats; a detail may differ. ± marks the error that the study gave.", "UniProt Q6PJP8, sequence (whole entry, looked up)": "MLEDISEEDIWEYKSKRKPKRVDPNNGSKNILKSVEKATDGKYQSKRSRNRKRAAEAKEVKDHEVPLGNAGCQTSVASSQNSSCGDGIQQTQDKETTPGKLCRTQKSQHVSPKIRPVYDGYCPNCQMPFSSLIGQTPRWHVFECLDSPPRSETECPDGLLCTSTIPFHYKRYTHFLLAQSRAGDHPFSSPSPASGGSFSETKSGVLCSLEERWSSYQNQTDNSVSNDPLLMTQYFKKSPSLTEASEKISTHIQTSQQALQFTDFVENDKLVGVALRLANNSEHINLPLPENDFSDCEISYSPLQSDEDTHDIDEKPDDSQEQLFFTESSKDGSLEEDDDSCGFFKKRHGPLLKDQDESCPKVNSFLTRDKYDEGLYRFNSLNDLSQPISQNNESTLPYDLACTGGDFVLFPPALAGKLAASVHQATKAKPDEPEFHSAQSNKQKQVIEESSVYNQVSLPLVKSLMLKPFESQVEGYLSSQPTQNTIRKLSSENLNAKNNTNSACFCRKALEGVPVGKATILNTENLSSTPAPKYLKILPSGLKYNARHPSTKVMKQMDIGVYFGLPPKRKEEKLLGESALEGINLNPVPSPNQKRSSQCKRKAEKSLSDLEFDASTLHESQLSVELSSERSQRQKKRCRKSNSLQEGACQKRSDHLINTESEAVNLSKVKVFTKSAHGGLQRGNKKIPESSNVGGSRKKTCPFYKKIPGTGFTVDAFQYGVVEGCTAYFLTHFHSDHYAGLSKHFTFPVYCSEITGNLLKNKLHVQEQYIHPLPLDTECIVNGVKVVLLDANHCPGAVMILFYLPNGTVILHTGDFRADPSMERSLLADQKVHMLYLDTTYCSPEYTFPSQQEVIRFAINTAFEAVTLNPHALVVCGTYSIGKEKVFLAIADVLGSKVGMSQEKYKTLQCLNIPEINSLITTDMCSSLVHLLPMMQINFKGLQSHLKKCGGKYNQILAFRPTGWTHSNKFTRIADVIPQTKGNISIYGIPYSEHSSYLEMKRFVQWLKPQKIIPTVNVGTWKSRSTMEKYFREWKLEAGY", "UniProt Q9P289, sequence (whole entry, looked up)": "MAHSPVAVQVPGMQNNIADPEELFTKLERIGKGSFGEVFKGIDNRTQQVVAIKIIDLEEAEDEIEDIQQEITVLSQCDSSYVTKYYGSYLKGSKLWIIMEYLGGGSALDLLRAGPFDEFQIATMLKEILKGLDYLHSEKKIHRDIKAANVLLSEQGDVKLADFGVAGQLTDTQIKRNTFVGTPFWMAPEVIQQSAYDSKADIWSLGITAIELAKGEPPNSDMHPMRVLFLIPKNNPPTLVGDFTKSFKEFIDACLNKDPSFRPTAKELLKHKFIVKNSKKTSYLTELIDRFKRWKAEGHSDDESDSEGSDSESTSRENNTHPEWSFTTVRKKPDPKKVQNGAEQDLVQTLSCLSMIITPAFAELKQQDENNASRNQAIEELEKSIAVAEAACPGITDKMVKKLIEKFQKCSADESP", "UniProt Q92626, sequence (whole entry, looked up)": "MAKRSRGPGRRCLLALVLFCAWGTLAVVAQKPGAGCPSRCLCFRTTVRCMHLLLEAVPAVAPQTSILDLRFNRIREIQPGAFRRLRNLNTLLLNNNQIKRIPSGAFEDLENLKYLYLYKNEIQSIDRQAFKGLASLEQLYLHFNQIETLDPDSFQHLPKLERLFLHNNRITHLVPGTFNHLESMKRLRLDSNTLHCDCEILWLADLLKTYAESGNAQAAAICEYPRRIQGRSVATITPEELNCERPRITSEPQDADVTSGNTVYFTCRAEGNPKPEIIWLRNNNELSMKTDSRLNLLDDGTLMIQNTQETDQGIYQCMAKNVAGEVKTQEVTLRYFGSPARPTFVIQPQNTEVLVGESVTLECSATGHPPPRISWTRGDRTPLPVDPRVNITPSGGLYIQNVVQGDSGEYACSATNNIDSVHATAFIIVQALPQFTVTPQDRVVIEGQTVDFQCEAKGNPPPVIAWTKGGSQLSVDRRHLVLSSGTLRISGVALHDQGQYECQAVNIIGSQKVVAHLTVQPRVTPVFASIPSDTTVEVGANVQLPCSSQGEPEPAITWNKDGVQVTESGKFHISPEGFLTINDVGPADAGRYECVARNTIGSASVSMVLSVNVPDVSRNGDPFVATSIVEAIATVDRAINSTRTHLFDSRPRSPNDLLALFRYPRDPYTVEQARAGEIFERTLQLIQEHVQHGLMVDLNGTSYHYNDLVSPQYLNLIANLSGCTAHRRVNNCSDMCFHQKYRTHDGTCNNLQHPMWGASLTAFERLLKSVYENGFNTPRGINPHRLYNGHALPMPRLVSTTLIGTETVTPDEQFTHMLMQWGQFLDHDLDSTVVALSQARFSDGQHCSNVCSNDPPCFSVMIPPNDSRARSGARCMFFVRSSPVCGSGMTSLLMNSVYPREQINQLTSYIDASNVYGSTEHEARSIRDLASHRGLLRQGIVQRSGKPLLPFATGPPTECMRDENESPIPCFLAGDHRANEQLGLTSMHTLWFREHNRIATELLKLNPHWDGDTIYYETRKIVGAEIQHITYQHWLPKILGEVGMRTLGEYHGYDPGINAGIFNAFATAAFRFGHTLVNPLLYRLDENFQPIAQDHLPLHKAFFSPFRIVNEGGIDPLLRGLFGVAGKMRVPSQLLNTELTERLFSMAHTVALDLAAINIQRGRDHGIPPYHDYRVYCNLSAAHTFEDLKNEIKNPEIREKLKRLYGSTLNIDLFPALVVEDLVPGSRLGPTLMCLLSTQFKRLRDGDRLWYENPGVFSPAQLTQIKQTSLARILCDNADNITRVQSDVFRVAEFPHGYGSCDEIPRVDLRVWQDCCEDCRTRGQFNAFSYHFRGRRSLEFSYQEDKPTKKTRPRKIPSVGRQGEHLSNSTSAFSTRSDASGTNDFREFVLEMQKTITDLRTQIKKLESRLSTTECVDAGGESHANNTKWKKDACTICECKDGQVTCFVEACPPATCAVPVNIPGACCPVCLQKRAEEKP", "UniProt Q14680, sequence (whole entry, looked up)": "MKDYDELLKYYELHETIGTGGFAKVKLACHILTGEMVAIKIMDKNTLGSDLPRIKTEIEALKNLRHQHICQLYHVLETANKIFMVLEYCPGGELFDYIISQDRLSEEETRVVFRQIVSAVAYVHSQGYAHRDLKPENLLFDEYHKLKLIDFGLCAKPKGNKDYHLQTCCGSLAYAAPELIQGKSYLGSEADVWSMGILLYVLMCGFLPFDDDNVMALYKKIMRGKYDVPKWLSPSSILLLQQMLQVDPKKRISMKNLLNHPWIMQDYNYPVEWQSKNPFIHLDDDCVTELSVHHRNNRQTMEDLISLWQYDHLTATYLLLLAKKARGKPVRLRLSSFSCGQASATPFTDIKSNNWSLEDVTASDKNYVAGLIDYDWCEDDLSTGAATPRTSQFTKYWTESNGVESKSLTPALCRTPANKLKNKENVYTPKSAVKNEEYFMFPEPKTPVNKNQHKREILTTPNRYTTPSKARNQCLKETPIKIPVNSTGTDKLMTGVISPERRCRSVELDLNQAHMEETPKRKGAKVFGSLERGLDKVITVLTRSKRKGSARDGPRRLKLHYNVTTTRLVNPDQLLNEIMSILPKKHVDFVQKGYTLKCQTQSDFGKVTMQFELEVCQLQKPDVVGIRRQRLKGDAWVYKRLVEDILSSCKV", "UniProt P45983, sequence (whole entry, looked up)": "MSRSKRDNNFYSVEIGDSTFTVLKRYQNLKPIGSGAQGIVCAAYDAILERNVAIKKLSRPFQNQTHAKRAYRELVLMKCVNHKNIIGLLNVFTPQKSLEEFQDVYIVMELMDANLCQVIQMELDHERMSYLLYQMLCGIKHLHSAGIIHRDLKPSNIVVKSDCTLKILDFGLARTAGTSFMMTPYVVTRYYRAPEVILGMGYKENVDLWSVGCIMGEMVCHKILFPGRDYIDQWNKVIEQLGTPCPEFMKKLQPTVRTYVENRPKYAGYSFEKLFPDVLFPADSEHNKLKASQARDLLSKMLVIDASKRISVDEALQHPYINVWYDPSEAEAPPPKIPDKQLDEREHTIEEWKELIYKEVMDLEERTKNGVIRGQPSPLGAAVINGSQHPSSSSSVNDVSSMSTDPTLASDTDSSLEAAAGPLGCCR", "UniProt Q9NY57, sequence (whole entry, looked up)": "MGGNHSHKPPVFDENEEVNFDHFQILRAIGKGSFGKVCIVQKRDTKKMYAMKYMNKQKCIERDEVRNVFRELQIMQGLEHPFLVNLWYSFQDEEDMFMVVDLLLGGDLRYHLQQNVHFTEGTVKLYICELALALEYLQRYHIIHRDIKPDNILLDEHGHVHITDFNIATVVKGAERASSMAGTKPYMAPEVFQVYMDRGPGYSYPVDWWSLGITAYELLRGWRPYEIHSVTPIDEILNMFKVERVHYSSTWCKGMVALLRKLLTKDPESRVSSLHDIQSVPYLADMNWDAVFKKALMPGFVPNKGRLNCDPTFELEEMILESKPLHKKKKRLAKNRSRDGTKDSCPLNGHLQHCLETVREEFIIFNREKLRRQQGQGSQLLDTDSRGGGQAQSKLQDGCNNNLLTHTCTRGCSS"}
{"SMILES": "COc1cc(-c2cncc3c2CN(C)Cc2cc(N4CCNCC4)ccc2-3)cc(OC)c1OC", "target": "Serine/threonine-protein kinase 32B (STK32B, Homo sapiens, UniProt Q9NY57)", "assay": "kinase activity", "setting": "1 µM, human enzyme, added: ATP 10 µM", "how to read": "baseline: DMSO control", "remaining activity": "101%"}
{"SMILES": "Cc1nc(N=Nc2cc(S(=O)(=O)[O-])c3cc([N+](=O)[O-])cc(S(=O)(=O)[O-])c3c2)c(COP(=O)([O-])[O-])c(C=O)c1O.[Na+].[Na+].[Na+].[Na+]", "target": "DCLRE1A", "assay": "exonuclease activity, inhibitor, fluorescence HTS", "setting": "10 µM, 80 min, added: 8 nM 5P-FQ substrate", "how to read": "baseline: high and low controls", "remaining activity": "51.8%"}
{"SMILES": "O=C(O)c1ccc(Nc2ncc3c(n2)-c2ccc(Cl)cc2C(c2c(F)cccc2F)=NC3)cc1", "target": "human LIMK1(h)", "assay": "kinase activity", "setting": "1 µM", "remaining activity": "110%"}
{"SMILES": "S=C=Nc1ccc2oc(C3=NCCN3)cc2c1", "target": "DCLRE1A", "assay": "exonuclease activity, inhibitor, fluorescence HTS", "setting": "10 µM, 80 min, added: 8 nM 5P-FQ substrate", "how to read": "baseline: high and low controls", "remaining activity": "51.4%"}
{"SMILES": "CC#CC(=O)N1CCC[C@H]1c1nc(-c2ccc(C(=O)Nc3ccccn3)cc2)c2c(N)nccn12", "target": "STK26", "assay": "kinase activity, inhibitor, HotSpot radiometric", "setting": "100 nM, added: ATP 10 µM", "remaining activity": "88.4 ± 1.3%"}
{"SMILES": "COc1cc(Nc2ncc3c(n2)-c2ccc(Cl)cc2C(c2c(F)cccc2OC)=NC3)ccc1C(=O)O", "target": "KIT", "assay": "inhibitor, biochemical kinase", "setting": "1 µM", "remaining activity": "104%"}
{"SMILES": "COc1cc(F)ccc1-c1ncnc(Nc2cccc(C[S@](C)(=N)=O)c2)n1", "target": "PRKACA", "assay": "kinase activity", "setting": "10 µM, added: 10 µM ATP", "remaining activity": "113%"}
{"SMILES": "Cc1cc(Nc2cc(N3CCN(C)CC3)nc(Sc3ccc(NC(=O)C4CC4)cc3)n2)[nH]n1", "target": "RAC-alpha serine/threonine-protein kinase (AKT1, Homo sapiens, UniProt P31749)", "assay": "kinase activity, KinaseProfiler", "setting": "0.03 µM, species human", "how to read": "baseline: control", "remaining activity": "96%"}
{"SMILES": "COc1ccc(F)cc1C(=O)NCc1ccc(-c2nn([C@@H](C)C(F)(F)F)c(N)c2C(N)=O)cc1", "target": "STK26", "assay": "kinase activity, inhibitor, HotSpot radiometric", "setting": "100 nM, added: ATP 10 µM", "remaining activity": "81%"}
{"SMILES": "O=C1NC(=O)/C(=C/c2ccc(-c3ccc(F)cc3O)o2)S1", "target": "Maternal embryonic leucine zipper kinase (MELK, Homo sapiens, UniProt Q14680)", "assay": "enzyme activity", "setting": "10 µM", "remaining activity": "91%"}
{"SMILES": "NC/C(=C\\F)COc1cccc(Cn2c(=S)[nH]c(=O)c3[nH]cnc32)c1", "target": "Peroxidasin homolog (PXDN, Homo sapiens, UniProt Q92626)", "assay": "enzyme activity, inhibitor, Amplex UltraRed", "setting": "10 µM", "how to read": "baseline: control", "remaining activity": "46.5% and 43.9%"}
{"SMILES": "Cc1[nH]c(/C=C2\\C(=O)Nc3ccc(F)cc32)c(C)c1C(=O)N[C@H]1CCN(C(=O)N(C)C)C1", "target": "AMPK, rat", "assay": "kinase activity, KinaseProfiler", "setting": "1 µM", "how to read": "baseline: control", "remaining activity": "40%"}
{"SMILES": "C[C@@H]1CC[C@@]23CCC4(C)[C@@](C=CC5[C@@]6(C)CCC(=O)C(C)(C)C6CC[C@]54C)(OC2=O)C3[C@H]1C (some centres unmarked)", "target": "DCLRE1A", "assay": "exonuclease activity, inhibitor, fluorescence HTS", "setting": "10 µM, 80 min, added: 8 nM 5P-FQ substrate", "remaining activity": "42%"}
{"SMILES": "O=C(NC1CCC1)c1ccc2nc(-c3cccc(NS(=O)(=O)NCCN4CCCCC4)c3)cn2c1", "target": "Phosphatidylinositol 4,5-bisphosphate 3-kinase catalytic subunit beta isoform (PIK3CB, Homo sapiens, UniProt P42338)", "assay": "enzyme activity", "setting": "10 µM", "remaining activity": "77%"}
{"SMILES": "C=CC(=O)N1CCC([C@@H]2CCNc3c(C(N)=O)c(-c4ccc(Oc5ccccc5)cc4)nn32)CC1", "target": "STK26", "assay": "kinase activity, inhibitor, HotSpot radiometric", "setting": "100 nM, added: ATP 10 µM", "remaining activity": "79.3 ± 0.3%"}
{"SMILES": "COc1cc(N2CCN(C)CC2)ccc1Nc1nc(N)n(C(=O)NCc2c(Cl)cccc2Cl)n1", "target": "Casein kinase II subunit alpha' (CSNK2A2, Homo sapiens, UniProt P19784)", "assay": "enzyme activity", "setting": "10 µM", "how to read": "baseline: control", "remaining activity": "28%"}
{"SMILES": "COc1ccc(Cl)cc1-c1cc(=O)[nH]c(=S)n1CC(N)=O", "target": "Myeloperoxidase (MPO, Homo sapiens, UniProt P05164)", "setting": "0.625 µM, 0.1 h", "remaining activity": "72.7%"}
{"SMILES": "c1cnc2ccc(Nc3nc(NC4CC4)c4nc[nH]c4n3)cc2c1", "target": "PRKACA", "assay": "kinase activity, inhibitor, SelectScreen kinase profiling", "setting": "1 µM", "how to read": "baseline: control", "remaining activity": "72%"}
{"SMILES": "O=c1cc(O)cc(/C=C/c2ccc(O)c(O)c2)o1", "target": "DCLRE1A", "assay": "exonuclease activity, inhibitor, fluorescence HTS", "setting": "10 µM, 80 min, added: 8 nM 5P-FQ substrate", "remaining activity": "41.9%"}
{"SMILES": "COc1ccc2oc(-c3ccc4nc(N)oc4c3)c/c(=N\\c3ccccc3NC(=O)CCN)c2c1", "target": "Phosphatidylinositol 4,5-bisphosphate 3-kinase catalytic subunit beta isoform, with p85 beta (Pik3cb, Mus musculus, UniProt Q8BTI9)", "setting": "1 µM", "how to read": "baseline: untreated", "remaining activity": "93%"}
{"SMILES": "COc1cc(O)c2c(c1)oc(=O)c1c3cc(O)c(O)cc3oc21", "target": "DCLRE1A", "assay": "exonuclease activity, inhibitor, fluorescence HTS", "setting": "10 µM, 80 min, added: 8 nM 5P-FQ substrate", "remaining activity": "26.6%"}
{"SMILES": "C=CC(=O)N1CCC[C@@H](n2nc(-c3ccc(Oc4ccccc4)cc3)c3c(N)ncnc32)C1", "target": "Myosin light chain kinase, smooth muscle (MYLK, Homo sapiens, UniProt Q15746)", "setting": "10 µM", "remaining activity": "52.8%"}
{"SMILES": "CC(=O)ON=C1C=CC(=C(C#N)c2ccccc2)C=C1", "target": "Dual specificity protein kinase CLK1 (Clk1, Mus musculus, UniProt P22518)", "assay": "enzyme activity, inhibitor, ADP-Glo", "setting": "2 µM, about MIC/10, added: ATP 10 µM", "remaining activity": "98%"}
{"SMILES": "O=C(Nc1cccc(C(=O)Nc2ccc(S(=O)(=O)O)c3cc(S(=O)(=O)O)cc(S(=O)(=O)O)c23)c1)Nc1cccc(C(=O)Nc2ccc(S(=O)(=O)O)c3cc(S(=O)(=O)O)cc(S(=O)(=O)O)c23)c1", "target": "DCLRE1A", "assay": "exonuclease activity, inhibitor, fluorescence HTS", "setting": "10 µM, 80 min, added: 8 nM 5P-FQ substrate", "how to read": "baseline: high and low controls", "remaining activity": "49.6%"}
{"SMILES": "Cc1cc(NC(=O)c2cccc(NC(=O)/C=C/CN(C)C)c2)ccc1Nc1nccc(-c2cccnc2)n1", "target": "Mitogen-activated protein kinase 8 (MAPK8, Homo sapiens, UniProt P45983)", "assay": "enzyme activity, inhibitor", "setting": "44.44 µM, 0 h, unit not given, added: GSH 10 mM pre-incubation", "how to read": "baseline: vehicle", "remaining activity": 0.0192}
{"SMILES": "O=c1cc(-c2ccc(O)c(-c3c(O)cc(O)c4c(=O)cc(-c5ccc(O)cc5)oc34)c2)oc2cc(O)cc(O)c12", "target": "DCLRE1A", "assay": "exonuclease activity, inhibitor, fluorescence HTS", "setting": "10 µM, 80 min, added: 8 nM 5P-FQ substrate", "remaining activity": "35.4%"}
{"SMILES": "CNc1ncc2c(/C=C/C(=O)N3CCC(OC)CC3)nn(Cc3cccc(C(F)(F)F)c3)c2n1", "target": "High affinity nerve growth factor receptor (NTRK1, Homo sapiens, UniProt P04629)", "assay": "kinase activity, inhibitor", "setting": "1 µM", "how to read": "baseline: untreated control", "remaining activity": "69%"}
{"SMILES": "Clc1ccc(C(c2ccc(Cl)cc2)n2cc[n+](CC(OCc3ccc(Cl)cc3Cl)c3ccc(Cl)cc3Cl)c2)cc1 (centres unmarked)", "target": "DCLRE1A", "assay": "exonuclease activity, inhibitor, fluorescence HTS", "setting": "10 µM, 80 min, added: 8 nM 5P-FQ substrate", "remaining activity": "40.6%"}
{"SMILES": "COc1cc(N2CCN(C)CC2)ccc1Nc1nc(N)n(C(=S)NCc2c(Cl)cccc2Cl)n1", "target": "Dual specificity tyrosine-phosphorylation-regulated kinase 1B (DYRK1B, Homo sapiens, UniProt Q9Y463)", "assay": "enzyme activity", "setting": "10 µM", "how to read": "baseline: control", "remaining activity": "0.45%"}
{"note": "Some of these lines once more:"}
{"SMILES": "COc1ccc2oc(-c3ccc4nc(N)oc4c3)c/c(=N\\c3ccccc3NC(=O)CCN)c2c1", "target": "Phosphatidylinositol 4,5-bisphosphate 3-kinase catalytic subunit beta isoform, with p85 beta (Pik3cb, Mus musculus, UniProt Q8BTI9)", "setting": "1 µM", "how to read": "baseline: untreated", "remaining activity": "93%"}
{"SMILES": "c1cnc2ccc(Nc3nc(NC4CC4)c4nc[nH]c4n3)cc2c1", "target": "PRKACA", "assay": "kinase activity, inhibitor, SelectScreen kinase profiling", "setting": "1 µM", "how to read": "baseline: control", "remaining activity": "72%"}
{"SMILES": "O=C(O)c1ccc(Nc2ncc3c(n2)-c2ccc(Cl)cc2C(c2c(F)cccc2F)=NC3)cc1", "target": "human LIMK1(h)", "assay": "kinase activity", "setting": "1 µM", "remaining activity": "110%"}
{"SMILES": "Clc1ccc(C(c2ccc(Cl)cc2)n2cc[n+](CC(OCc3ccc(Cl)cc3Cl)c3ccc(Cl)cc3Cl)c2)cc1 (centres unmarked)", "target": "DCLRE1A", "assay": "exonuclease activity, inhibitor, fluorescence HTS", "setting": "10 µM, 80 min, added: 8 nM 5P-FQ substrate", "remaining activity": "40.6%"}
